Experimental data from different studies.
Each line is one published result; not all experiments were run side by side. “And” joins repeats or separate records; there may be more than shown. ± marks the error that the study gave.
Cell line: RAW264.7

| SMILES | effect on | action | technique | time | notes | together with | IC50 |
| --- | --- | --- | --- | --- | --- | --- | --- |
| O=C(/C=C/CI)O[C@@H]1COC(=O)C1 | NO release | inhibitor | – | – | LPS-stimulated | – | 0.9 µM |
| CCCCn1cc(C(=O)O)c(=O)c2cc(F)c(Nc3cccc(Cl)c3)c([N+](=O)[O-])c21 | nitric oxide production | – | Griess | 24 h | – | LPS | 30.1 ± 0.5 µg/mL |
| CC[C@H](C)[C@H](NC(=O)OC(C)(C)C)C(=O)Oc1c(OC)ccc2c1[C@@]13CCN(C)[C@@H](C2)[C@H]1C=C(OC)C(=O)C3 | NO release | inhibitor | Griess | – | LPS-stimulated | – | 44.1 µM |
| CCCCn1cc(C(=O)O)c(=O)c2cc(F)c3c(nnn3-c3cccc(Cl)c3)c21 | NO release | inhibitor | Griess | – | LPS-stimulated | – | 78 µM and 77.7 µM |
| COC1=C[C@@H]2[C@@H]3Cc4ccc(OC)c(OC(=O)c5cnc(C)cn5)c4[C@]2(CCN3C)CC1=O | NO release | inhibitor | Griess | – | LPS-stimulated | – | 50.4 µM |
| CCCCn1cc(C(=O)O)c(=O)c2cc(F)c(Nc3ccccc3Cl)c([N+](=O)[O-])c21 | nitric oxide production | – | Griess | 24 h | – | LPS | 31.4 ± 5.31 µg/mL |
| O=C(/C=C/CCl)OC1CCOC1=O (racemic) | NO release | inhibitor | – | – | LPS-stimulated | – | 19.6 µM |
| COC1=C[C@@H]2[C@@H]3Cc4ccc(OC)c(OC(=O)[C@@H]5CCCN5C(=O)OC(C)(C)C)c4[C@]2(CCN3C)CC1=O | NO release | inhibitor | Griess | – | LPS-stimulated | – | 51.4 µM |
| COc1ccc(-n2cc(C(=O)N3C[C@]4(OC(=O)c5ccccc5NC(C)=O)CC[C@H](OC)[C@@]56[C@@H]4C[C@@H]([C@@H]35)[C@@]3(O)C[C@H](OC)[C@H]4C[C@@H]6[C@]3(O)[C@H]4OC)nn2)cc1 | TNF-α release | inhibitor | ELISA | 24 h | LPS-stimulated | – | 89.7 µM |

Repeated from above:
| SMILES | effect on | action | technique | time | notes | together with | IC50 |
| --- | --- | --- | --- | --- | --- | --- | --- |
| CCCCn1cc(C(=O)O)c(=O)c2cc(F)c3c(nnn3-c3cccc(Cl)c3)c21 | NO release | inhibitor | Griess | – | LPS-stimulated | – | 78 µM and 77.7 µM |
